Literature values, collected from citations in different studies.
Protocols differ between the studies behind these lines. Numbers after ± are the reported error.
Slc6a3: Sodium-dependent dopamine transporter (Slc6a3, Rattus norvegicus, UniProt P23977)
Sequence of UniProt P23977 (whole entry, looked up): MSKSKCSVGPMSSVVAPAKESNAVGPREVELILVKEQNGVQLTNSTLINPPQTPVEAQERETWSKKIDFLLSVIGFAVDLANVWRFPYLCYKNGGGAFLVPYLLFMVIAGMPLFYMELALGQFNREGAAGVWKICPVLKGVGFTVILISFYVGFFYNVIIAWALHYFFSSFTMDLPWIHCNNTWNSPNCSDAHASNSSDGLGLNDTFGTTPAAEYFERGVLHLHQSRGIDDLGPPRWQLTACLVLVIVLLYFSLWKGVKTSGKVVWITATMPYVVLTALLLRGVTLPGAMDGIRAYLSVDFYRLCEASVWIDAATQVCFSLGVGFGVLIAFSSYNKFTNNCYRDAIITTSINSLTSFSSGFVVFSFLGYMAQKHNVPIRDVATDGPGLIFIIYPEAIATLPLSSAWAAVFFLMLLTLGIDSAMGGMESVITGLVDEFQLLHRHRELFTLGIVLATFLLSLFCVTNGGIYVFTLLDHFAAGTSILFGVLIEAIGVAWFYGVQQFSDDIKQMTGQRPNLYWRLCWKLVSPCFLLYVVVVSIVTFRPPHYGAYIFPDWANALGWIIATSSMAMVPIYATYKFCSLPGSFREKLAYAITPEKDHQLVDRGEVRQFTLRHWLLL
Sequence of UniProt Q9Y2T6 (whole entry, looked up): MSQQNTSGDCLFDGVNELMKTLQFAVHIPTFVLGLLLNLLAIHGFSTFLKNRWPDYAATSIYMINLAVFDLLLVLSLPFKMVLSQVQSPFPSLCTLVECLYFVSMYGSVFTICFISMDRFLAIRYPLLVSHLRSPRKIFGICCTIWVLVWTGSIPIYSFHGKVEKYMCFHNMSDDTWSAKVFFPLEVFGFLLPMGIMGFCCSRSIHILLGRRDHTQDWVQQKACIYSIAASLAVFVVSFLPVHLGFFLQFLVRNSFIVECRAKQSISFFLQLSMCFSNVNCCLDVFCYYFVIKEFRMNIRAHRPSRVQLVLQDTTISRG
Sequence of UniProt P28472 (whole entry, unmodified, looked up): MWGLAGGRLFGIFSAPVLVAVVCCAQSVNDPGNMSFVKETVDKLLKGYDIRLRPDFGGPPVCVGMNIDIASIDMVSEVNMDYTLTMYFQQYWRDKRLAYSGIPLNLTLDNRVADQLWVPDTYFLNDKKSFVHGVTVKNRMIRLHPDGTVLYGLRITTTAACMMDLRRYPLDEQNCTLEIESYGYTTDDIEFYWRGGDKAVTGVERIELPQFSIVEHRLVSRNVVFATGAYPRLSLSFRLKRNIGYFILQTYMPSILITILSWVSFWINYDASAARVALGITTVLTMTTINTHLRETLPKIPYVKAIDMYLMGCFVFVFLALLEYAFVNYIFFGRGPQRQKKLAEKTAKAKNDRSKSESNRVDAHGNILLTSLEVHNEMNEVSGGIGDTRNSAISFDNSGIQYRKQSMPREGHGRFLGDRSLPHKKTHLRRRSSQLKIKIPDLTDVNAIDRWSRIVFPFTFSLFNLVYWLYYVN
Sequence of UniProt P31652 (whole entry, looked up): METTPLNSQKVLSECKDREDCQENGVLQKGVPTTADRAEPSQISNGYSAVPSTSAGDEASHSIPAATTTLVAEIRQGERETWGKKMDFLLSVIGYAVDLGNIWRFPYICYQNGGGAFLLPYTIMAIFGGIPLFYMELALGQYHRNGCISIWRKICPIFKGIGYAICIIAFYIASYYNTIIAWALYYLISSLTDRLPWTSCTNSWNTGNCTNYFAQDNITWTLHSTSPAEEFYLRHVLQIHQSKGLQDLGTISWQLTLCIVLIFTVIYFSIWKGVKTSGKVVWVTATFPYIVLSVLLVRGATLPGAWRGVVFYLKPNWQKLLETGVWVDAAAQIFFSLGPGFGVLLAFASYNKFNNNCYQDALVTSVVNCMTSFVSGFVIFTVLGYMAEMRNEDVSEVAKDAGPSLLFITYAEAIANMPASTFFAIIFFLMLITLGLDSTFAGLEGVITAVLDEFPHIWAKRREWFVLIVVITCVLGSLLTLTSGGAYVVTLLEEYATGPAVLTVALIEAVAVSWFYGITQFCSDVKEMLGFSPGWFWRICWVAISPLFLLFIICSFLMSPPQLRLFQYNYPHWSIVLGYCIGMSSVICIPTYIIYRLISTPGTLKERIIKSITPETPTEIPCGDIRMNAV
Sequence of UniProt P31645 (whole entry, looked up): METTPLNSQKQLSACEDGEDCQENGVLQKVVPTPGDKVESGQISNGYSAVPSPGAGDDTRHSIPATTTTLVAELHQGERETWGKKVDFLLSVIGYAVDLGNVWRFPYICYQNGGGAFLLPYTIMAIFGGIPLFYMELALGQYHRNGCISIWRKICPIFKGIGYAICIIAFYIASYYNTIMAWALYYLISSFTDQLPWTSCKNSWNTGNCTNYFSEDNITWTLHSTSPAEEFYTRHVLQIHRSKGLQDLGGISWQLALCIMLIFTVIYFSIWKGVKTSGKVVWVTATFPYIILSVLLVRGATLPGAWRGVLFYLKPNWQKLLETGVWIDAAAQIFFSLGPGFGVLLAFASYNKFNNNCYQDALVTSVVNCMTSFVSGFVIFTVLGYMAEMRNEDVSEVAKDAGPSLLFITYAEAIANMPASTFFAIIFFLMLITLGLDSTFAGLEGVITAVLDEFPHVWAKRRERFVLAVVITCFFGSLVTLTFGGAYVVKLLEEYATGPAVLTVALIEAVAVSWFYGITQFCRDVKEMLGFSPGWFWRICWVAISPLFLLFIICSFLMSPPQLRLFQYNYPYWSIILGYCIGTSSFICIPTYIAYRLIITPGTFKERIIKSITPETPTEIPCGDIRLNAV
Sequence of UniProt P28223 (whole entry, looked up): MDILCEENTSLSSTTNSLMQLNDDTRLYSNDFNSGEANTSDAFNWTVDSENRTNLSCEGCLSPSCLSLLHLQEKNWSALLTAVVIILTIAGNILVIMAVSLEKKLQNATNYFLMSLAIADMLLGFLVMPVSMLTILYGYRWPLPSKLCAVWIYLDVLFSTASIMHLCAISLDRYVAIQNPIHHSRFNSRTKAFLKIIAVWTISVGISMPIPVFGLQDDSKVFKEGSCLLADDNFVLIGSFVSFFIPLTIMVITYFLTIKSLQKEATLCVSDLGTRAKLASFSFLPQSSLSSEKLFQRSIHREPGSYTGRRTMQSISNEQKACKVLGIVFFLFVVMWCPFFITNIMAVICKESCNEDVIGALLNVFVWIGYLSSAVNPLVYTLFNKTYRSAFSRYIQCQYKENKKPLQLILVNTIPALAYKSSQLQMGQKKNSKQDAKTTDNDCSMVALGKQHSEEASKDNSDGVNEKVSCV
Sequence of UniProt P14867 (whole entry, unmodified, looked up): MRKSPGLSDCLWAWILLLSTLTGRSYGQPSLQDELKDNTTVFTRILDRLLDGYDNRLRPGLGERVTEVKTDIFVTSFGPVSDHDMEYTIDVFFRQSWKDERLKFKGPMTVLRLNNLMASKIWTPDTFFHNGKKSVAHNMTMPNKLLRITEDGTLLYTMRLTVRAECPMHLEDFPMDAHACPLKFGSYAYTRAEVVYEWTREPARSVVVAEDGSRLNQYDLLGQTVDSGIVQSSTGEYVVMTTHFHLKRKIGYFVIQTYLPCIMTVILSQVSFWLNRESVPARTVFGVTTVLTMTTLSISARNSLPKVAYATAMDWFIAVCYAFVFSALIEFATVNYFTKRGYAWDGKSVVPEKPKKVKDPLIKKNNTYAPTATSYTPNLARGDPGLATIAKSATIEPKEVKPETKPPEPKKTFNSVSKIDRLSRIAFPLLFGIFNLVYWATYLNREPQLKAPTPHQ

CCCCC/C=C\C/C=C\C/C=C\C/C=C\CCCC(=O)OCCN  EC50 (GPR55 (Homo sapiens, UniProt Q9Y2T6); agonist): 3000 nM
COc1cc(CCNCc2ccccc2OC)c(OC)cc1I  EC50 (HTR2A (Homo sapiens, UniProt P28223); agonist): 240 nM
CC(C)[C@H](NC(=O)c1nn(Cc2ccc(F)cc2)c2ccccc12)C(N)=O  EC50 (CB1 receptor; GIRK channel current, agonist): 1.8 nM
CNC(C)Cc1ccc2c(c1)OCO2 (centres unmarked)  EC50 (SLC6A4 (Homo sapiens, UniProt P31645); [3H]serotonin release, releaser; HEK293 expressing transporter): 1100 ± 290 nM
cyclopropyl methoxycarbonyl metomidate  EC50 (GABA-A receptor alpha-1/beta-3, with gamma-2 subunit (GABRA1/GABRB3, Homo sapiens, UniProt P14867+P28472, L291T); ion current, agonist; peak 50% of 100 µM GABA): 3800 ± 400 nM
CNC(C)C(=O)c1ccc(Cl)cc1 (centres unmarked)  EC50 (Slc6a3; substrate release, releaser; rat brain synaptosomes): 42.2 nM
CCCCCn1cc(C(=O)C2C(C)(C)C2(C)C)c2ccccc21  EC50 (CB1 receptor; GIRK channel current, agonist): 417 nM
CNC(C)C(=O)c1ccc(C(F)(F)F)cc1 (centres unmarked)  EC50 (Slc6a3; substrate release, releaser; rat brain synaptosomes): 2700 nM
CNC(C)C(=O)c1ccc(C)cc1 (centres unmarked)  EC50 (Slc6a3): 51 ± 5 nM
CNC(C)C(=O)c1ccccc1 (centres unmarked)  EC50 (Slc6a3; substrate release, releaser; rat brain synaptosomes): 12.5 nM
CNC(C)C(=O)c1ccc2c(c1)OCO2 (centres unmarked)  EC50 (Slc6a4 (Rattus norvegicus, UniProt P31652)): 234 ± 35 nM

Excerpt of the above:
CNC(C)C(=O)c1ccc2c(c1)OCO2 (centres unmarked)  EC50 (Slc6a4 (Rattus norvegicus, UniProt P31652)): 234 ± 35 nM
